# Experimental data gathered from unrelated publications.
# Each line is one published result; not all experiments were run side by side. ± marks the error that the study gave.
Compound,cell line,test,test system,conditions,scale,measurement,value
COc1cc(CNC(=O)C[C@H](C)CCC=C(C)C)ccc1OCc1cn(-c2ccc(Br)cc2)nn1,BT-549 breast cancer cells,SRB,,"10 µM, 48 h",,growth percent,93.6%
Cc1cc(C)n2c1C=C1C=CC(CCC(=O)NCCN(C)C)=[N+]1[B-]2(F)F,Colo-26,"mitochondrial colocalization, imaging flow cytometry",,added: MitoTracker Red,direction not given,bright detail similarity score,0.6 ± 0.3
CC1=CCC23OC2(C)CCC2C(CN(C)C)C(=O)OC2C13.Cl (stereo not shown),C6 rat glioma cells,,,"2 mg/mL, clonogenic",reference: control,proliferation,17.1 ± 2.06%
CO[C@@H]1[C@H](O)[C@@H](COP(=O)(O)OP(=O)([S-])OP(=O)(S)OC[C@H]2O[C@@H](n3cnc4c(=O)[nH]c(N)nc43)[C@H](O)[C@@H]2O)O[C@H]1n1c[n+](C)c2c(O)nc(N)nc21 (mixture of isomers),human immature dendritic cells,reporter gene,,"72 h, cap on electroporated luciferase mRNA",reference: beta-S-ARCA D1 capped mRNA,relative total luciferase expression,1.6 ± 0.01
C[C@@H](O)[C@H](NC(=O)[C@@H]1CSSC[C@H](NC(=O)[C@@H](Cc2ccccc2)NC(=O)CN2CCN(CC(=O)O)CCN(CC(=O)O)CCN(CC(=O)O)CC2)C(=O)N[C@@H](Cc2ccc(O)cc2)C(=O)N[C@H](Cc2c[nH]c3ccccc23)C(=O)N[C@@H](CCCCN)C(=O)N[C@@H]([C@@H](C)O)C(=O)N1)C(=O)O,AR-42J,radioligand uptake,,"concentration not given, 2 h",,internalized fraction of cell activity,53.1 ± 1.83%
COc1cc(CNC(=O)C[C@H](C)CCC=C(C)C)ccc1OCc1cn(-c2ccc(Cl)cc2Cl)nn1,M14 melanoma cells,SRB,,"10 µM, 48 h",,growth percent,102%
COC(=O)C(C)NC(=O)/C=C/C=C/c1ccc2c(c1)OCO2 (stereo not shown),HL-7702 (L-02) hepatocytes,"RT-qPCR, refers to: PPARγ",,100 µM,reference: untreated,mRNA level,11.8 fold
FC(F)(F)c1ccc(CNc2nc(NCc3ccccc3)c3ccccc3n2)cc1,SW-403,cell growth or viability,,72 h,,GI50,1.6 µM
CC(=O)N[C@H](C(=O)N[C@H](C(=O)N[C@@H](CCCNC(=N)N)C(=O)N1Cc2ccccc2C[C@H]1C(=O)N[C@@H](Cc1ccccc1)C(N)=O)C1CCCCC1)C(C)C,MBP-specific BC-3 T cells,"Bio-Plex multiplex, refers to: VEGF",,"200 µg/mL, 24 h, added: MBP87-99 antigen",,cytokine level,90.7 ± 33.9 pg/mL
C#CCOc1ccc(C(=O)c2ccc(NC(=O)C(=O)NCCc3ccc(OC)cc3)cc2)cc1,H1155 expressing CYP4F11,,,"concentration not given, ectopic CYP4F11 expression",,cytotoxicity,toxic
O=C1c2cccc3cccc(c23)C12NC(Cc1ccc(O)cc1)C([N+](=O)[O-])C2c1ccccc1 (stereo not shown),Jurkat,annexin V-FITC/PI flow cytometry,,"IC50, 24 h",,late apoptotic cells,27%
COc1cc(CNC(=O)C[C@H](C)CCC=C(C)C)ccc1OCc1cn(-c2cccc([N+](=O)[O-])c2)nn1,BT-549 breast cancer cells,SRB,,"10 µM, 48 h",,growth percent,77.1%
CC1=CC(C)=[N+]2C1=C(CCCC(=O)NCCCCCC(=O)NCCCC[C@H](NC(=O)N[C@@H](CCC(=O)O)C(=O)O)C(=O)O)c1c(C)cc(C)n1[B-]2(F)[18F] (stereo partly shown),LNCaP,PSMA-mediated internalization,,"60 min, added: 2-PMPA blocking",,internalized fraction,3.3%
CC(=O)OC[C@H]1O[C@@H](Sc2sc(C(=O)c3ccc(C)cc3)c(N)c2-c2nc3ccccc3s2)[C@H](OC(C)=O)[C@@H](OC(C)=O)[C@H]1OC(C)=O,SF-268,SRB,,"10 µM, 48 h",reference: untreated,growth,86%
CC(C)=CCC1=C([O-])C(=O)c2ccccc2C1=O.CC(C)=CCC1=C([O-])C(=O)c2ccccc2C1=O.O.[Cu+2].c1ccc(-c2ccccn2)nc1,MRC5 and A2780,MTT,,24 h,reference: IC50 MRC5 over IC50 A2780,selectivity index,3.8
C#CCN(CC(=O)O[C@H]1[C@H](C)O[C@@H](O[C@H]2[C@H](N(C)C)[C@@H](O)[C@H](O[C@H]3[C@@H](CC=O)C[C@@H](C)[C@@H](O[C@H]4CC[C@H](N(C)C)[C@@H](C)O4)/C=C/C=C/C[C@@H](C)OC(=O)C[C@@H](O)[C@@H]3OC)O[C@@H]2C)C[C@@]1(C)O)C(=O)c1ccc(C(F)(F)F)cc1,HGC-27,Western blot,,"0.10, 0.45, 0.90 µM, 24 h",,phospho-ERK1/2 level,increased
CCCC(CCC)C(=O)[O][Pt]([NH2])([NH2])([Cl])([Cl])[O]C(=O)C(Cl)Cl,HEK293 and PSN1,"cytotoxicity, MTT",,,reference: IC50 HEK293 over IC50 PSN1,selectivity index,3.2
COCC/N=C(\S)N/N=C(\C)c1ccccc1O,LDR,"silenced GFP reporter derepression, microscopy",,overnight,reference: sodium butyrate,Emax,98%
CO[C@H]1N(OC)c2ccccc2[C@@]12CN=C(Nc1cc(C(F)(F)F)cc(C(F)(F)F)c1)S2 (relative stereo),HCT-116,annexin V/PI flow cytometry,,"40 µM, 24 h",,viable cells,66.3 ± 7%
COC(=O)[C@@H](Cc1cn(Cc2ccc(Cl)cc2)nn1)NC(=O)OCC1c2ccccc2-c2ccccc21,AsPC-1,MTS,,"100 µM, 72 h",,cell growth inhibition,no effect
CC(C)(C)n1cc(CN(Cc2cn(CC(=O)O)nn2)Cc2cn(C(C)(C)C)nn2)nn1,OVCAR-5 HPG-labelled,"CuAAC reaction on cells, LC-ESI-MS/MS",cytosolic proteins,added: BSO 20 µM for 24 h pretreatment,,yield,0.8%
CC(=O)C=C(C)[O][Pd][c]1ccccc1C(=O)N=P12CN3CN(CN(C3)C1)C2,human PBMC and Jurkat,"cytotoxicity, MTT",,,reference: PBMC over Jurkat,selectivity ratio,11
COc1cc(CNC(=O)C[C@H](C)CCC=C(C)C)ccc1OCc1cn(-c2cccc(Cl)c2)nn1,M14 melanoma cells,SRB,,"10 µM, 48 h",,growth percent,93.4%
Cc1c(C)n(-c2c(C(C)C)cccc2C(C)C)c(=[Se])n1-c1c(C(C)C)cccc1C(C)C.[Cl][Ag],LoVo-OXP colon cancer cells,MTT,,,reference: LoVo-OXP over LoVo IC50,resistance factor,0.2
COc1cc(/C=C/C(=O)NCCCCCCNC2=C3C[C@@H](C)C[C@H](OC)[C@H](O)[C@@H](C)/C=C(\C)[C@H](OC(N)=O)[C@@H](OC)/C=C\C=C(/C)C(=O)NC(=CC2=O)C3=O)ccc1O,MDA-MB-231 cells,"Hsp90 inhibitor, Western blot, refers to: Her2, Akt, CDK4",,concentration not given,,client protein levels,decreased
COc1cc(CNC(=O)C[C@H](C)CCC=C(C)C)ccc1OCc1cn(-c2ccccc2Cl)nn1,BT-549 breast cancer cells,SRB,,"10 µM, 48 h",,growth percent,28.2%
COc1ccc(CC2COC(=O)C2Cc2ccc3c(c2)OCO3)cc1OC (mixture of isomers),A2780,refers to: multi-caspase,,"8.75 µM, 72 h",reference: untreated,live cells,decreased
Cc1ccc(C(C)C)c(OCc2ccc(C(=O)N/N=C/c3cccc(O)c3O)cc2)c1,HCC4017,"ChIP, refers to: ANGPTL4 promoter H3K4me3",,"1.3 µM, 24 h",,H3K4me3 level,increased
Cc1nn(-c2ccc(S(=O)(=O)N[C@H](CO)CC(C)C)cc2)c2nn3nnnc3nc12,HT-29,PI/Hoechst staining,,"1 µM, 24 h",,apoptotic cells,25.5 ± 2.12%
COc1cc(C2c3cc4c(cc3C=C(C=O)C2C(=O)OCC=Cc2ccccc2)OCO4)cc(OC)c1OC (stereo not shown),uninfected mouse splenocytes,,,,reference: splenocyte CC50 over amastigote EC50,selectivity index,> 10
COc1cc(CNC(=O)C[C@H](C)CCC=C(C)C)ccc1OCc1cn(-c2ccc(F)cc2)nn1,OVCAR-5 ovarian cancer cells,SRB,,"10 µM, 48 h",,growth percent,102%
COc1cc(C2Oc3ccc(C=C4Oc5cc(O)ccc5C4=O)cc3OC2CO)cc(OC)c1O (stereo not shown),MRC5 over DU-145,"cytotoxicity, MTT",,72 h,reference: IC50 MRC5 over IC50 DU-145,selectivity ratio,0.84
CCCCCCCCCn1cc(C(N)(CO)CO)nn1,Alzheimer's disease patient iPSC-derived neurons,,,10 µM,,sphingomyelin level,no effect
CCN(CC)CC(=O)Nc1cccc(-n2cc(-c3ccc4ccc(-c5cn(-c6cccc(NC(=O)CN(CC)CC)c6)nn5)cc4c3)nn2)c1,RCC4,Western blot,,"5 × IC50, 2 h, hypoxia",reference: untreated,HIF-1α protein level,50%
Cc1noc(NS(=O)(=O)c2ccc(NC(=O)c3cc(-c4ccc5ccccc5c4)nc4ccccc34)cc2)c1C,mouse spleen cells,"cell proliferation, inhibitor",,"dose not given, added: concanavalin A",,effective concentration,~10 µM
Cc1ccc(/C=N/N=C(\S)Nc2cccc(S(=O)(=O)N(C)C)c2)o1,LDR,"silenced GFP reporter derepression, microscopy",,overnight,reference: sodium butyrate,Emax,34%
C[N+]1(CC(=O)OC2CCCCCCCCCCC2)CCCCC1,LNCaP,"cell viability, CellTiter-Blue",,96 h,,ED50,5.8 µM
CCOC(=O)COc1cc(Oc2ccc(S(=O)(=O)c3ccc(OC(C)C)cc3)cc2)c([N+](=O)[O-])cc1C(=O)C(Cl)Cl,NCI-H1299,"cell growth or viability, MTT",,2.5 µM,,inhibition,> 95%
Cc1ccc(C(C)C)cc1.[Cl-].[Cl][Ru+].[Ru+].c1ccc(-c2cn(CCCCOc3ccccc3-c3nc4ccccc4s3)nn2)nc1,MCF7,annexin V/PI flow cytometry,,"4 µM, 24 h",,late apoptotic cells,5.9%
Cc1cccc(C)c1OCC(=O)N[C@@H](Cc1ccccc1)[C@H](C[C@H](Cc1ccccc1)NC(=O)[C@H](C(C)C)N1CCCNC1=O)OC(=O)[C@H](CC(C)C)NC(=O)[C@@H](N)Cc1cnc[nH]1,"MDCK-MDR1, MDCK-MRP2 and Caco-2 cells","transport, inhibitor",,"25 µM, unlabelled GlySar 10 mM, added: [3H]-GlySar",,inhibition,~35%
Cc1ccc(C(C)C)cc1.O=C(N=P(c1ccccc1)(c1ccccc1)c1ccccc1)c1ccccn1.[Cl-].[Cl][Ru+],HCC1806,"cell invasion, 3D Transwell Geltrex",,"IC20, 24 h",reference: MDA-MB-231,inhibition,14.5%
CCCCN1C(=O)c2cccc3c(NCCCCCCCCCCN4CCOCC4)ccc(c23)C1=O,BHK-21,"lysosome colocalization, confocal microscopy",,"0.2 µM, added: LysoTracker Deep Red 0.3 µM",,Pearson correlation coefficient,0.87 ± 0.04
COc1cccc2c(NCc3ccccc3)nc(Nc3cccc(Cl)c3)nc12,SW-403,cell growth or viability,,24 h,,GI50,12 µM
COc1ccc([C@@H]2CC(=O)c3c(O)cc(O[C@@H]4O[C@H](CO[C@@H]5O[C@@H](C)[C@H](O)[C@@H](O)[C@H]5O)[C@@H](O[C@H]5O[C@H](CO)[C@@H](O)[C@H](O)[C@H]5O)[C@H](O)[C@H]4O)cc3O2)cc1O,A549,"cell migration, scratch",,"150 µg/mL, 24 h",,gap closure,3.29 ± 0.12%
Cc1noc(NS(=O)(=O)c2ccc(NC(=O)c3cc(-c4cccc(Cl)c4)nc4ccccc34)cc2)c1C,mouse spleen cells,"cell proliferation, MTT",,"100 µM, 72 h, added: concanavalin A 5 µg/mL",,inhibition,47.4 ± 4.98%
CC(=O)N[C@@H](CC(C)C)C(=O)N[C@@H](CCC(=O)O)C(=O)N[C@@H](CO)C(=O)N[C@@H](CC(=O)O)C(=O)CCl,THP-1 macrophages,"apoptosis, immunoblot",,"12.5 to 100 µM, added: staurosporine",,PARP cleavage,no effect
COc1cc(CNC(=O)C[C@H](C)CCC=C(C)C)ccc1OCc1cn(-c2ccccc2)nn1,M14 melanoma cells,SRB,,"10 µM, 48 h",,growth percent,85.7%
COc1ccc2c(c1)/C(=N\Nc1nnc3n1N=C(c1ccccc1)CS3)C(=O)N2,SF-268,"cell growth or viability, SRB",,10 µM,,inhibition,12%
N#Cc1cccc(/C=C/C(=O)c2ccc(O)cc2)c1,D54 and U-87 MG,cell viability,,72 h,,lowest effective concentration,> 1 µM
COc1cc(CNC(=O)C[C@H](C)CCC=C(C)C)ccc1OCc1cn(-c2ccc(Cl)c(Cl)c2)nn1,OVCAR-5 ovarian cancer cells,SRB,,"10 µM, 48 h",,growth percent,86.4%
O=Cc1c(O)ccc2ccccc12,HUVEC,"RNA sequencing, refers to: SESN2",,"75 µM, 24 h",reference: DMSO,log2 fold change,2.81
Nc1cccc(S(=O)(=O)N2CCCN(S(=O)(=O)c3ccc4c(c3)OCCO4)CC2)c1,H1299,,,concentration not given,,glucose consumption,no effect

# Some of these lines once more:
Compound,cell line,test,test system,conditions,scale,measurement,value
Cc1ccc(C(C)C)cc1.[Cl-].[Cl][Ru+].[Ru+].c1ccc(-c2cn(CCCCOc3ccccc3-c3nc4ccccc4s3)nn2)nc1,MCF7,annexin V/PI flow cytometry,,"4 µM, 24 h",,late apoptotic cells,5.9%
COc1cc(C2c3cc4c(cc3C=C(C=O)C2C(=O)OCC=Cc2ccccc2)OCO4)cc(OC)c1OC (stereo not shown),uninfected mouse splenocytes,,,,reference: splenocyte CC50 over amastigote EC50,selectivity index,> 10
CC(=O)N[C@H](C(=O)N[C@H](C(=O)N[C@@H](CCCNC(=N)N)C(=O)N1Cc2ccccc2C[C@H]1C(=O)N[C@@H](Cc1ccccc1)C(N)=O)C1CCCCC1)C(C)C,MBP-specific BC-3 T cells,"Bio-Plex multiplex, refers to: VEGF",,"200 µg/mL, 24 h, added: MBP87-99 antigen",,cytokine level,90.7 ± 33.9 pg/mL
COCC/N=C(\S)N/N=C(\C)c1ccccc1O,LDR,"silenced GFP reporter derepression, microscopy",,overnight,reference: sodium butyrate,Emax,98%
CCCCN1C(=O)c2cccc3c(NCCCCCCCCCCN4CCOCC4)ccc(c23)C1=O,BHK-21,"lysosome colocalization, confocal microscopy",,"0.2 µM, added: LysoTracker Deep Red 0.3 µM",,Pearson correlation coefficient,0.87 ± 0.04
